Experimental data pooled from the literature.
Numbered parts are unrelated; each lists some results of a single study.

Set 1
Target: RNA binding protein fox-1 homolog 2, RRM domain, GST-SBP tag (RBFOX2, Homo sapiens, UniProt O43251-10, residues 100-194)
Technique: RNA Bind-n-Seq
Form: RNA
Matrix: in vitro
Tested at: 365 nM
Setting: natural RNA segment, single round, ends assumed
Reference: no-protein control
Reading: higher = stronger binding
Constant ends, left off below: GGGAGUUCUACAGUCCGACGAUC … UGGAAUUCUCGGGUGCCAA
Residues (chain): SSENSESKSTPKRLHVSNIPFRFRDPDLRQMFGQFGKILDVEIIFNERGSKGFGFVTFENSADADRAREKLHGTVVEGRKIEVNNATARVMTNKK
Oligonucleotide | RBNS enrichment (R)
UCGAUGUGUGUGAUAUUCAGAGACUGGAGGAGCUGCUGACAUUAUCCUGUGUUUAGAUGCUUUAAUGUUCAUAAAGCCUGUCUUGUGACUGGACUGUCAGCUGUCCAACU | 0.498
GUCAGAAGAUCUAAAGCCUUCCUUCAUAUUCCAGUUCUGUGAGUCCCUAACAGCAGGCAGCAUCCAUGCUGAAGCACAUACACCUCCGCUCCUCACCAGUGGGUUUUCUU | 0.436
GUGCUGCCUCAGCUUCCCGAGUAGCUAGGAUUACAGGUGCAUGCCACCACACCUGGCUAAUUUUUGUAUUUUAGUAGAGAUGGGGUUUCACCAUGUUGGCCAGGCUCGUC | 1.03
CCCUGCCUGCCCAUCUCAGAGCCAUAAGGUCAUCUUUGCUAGAGCUAUUUUUACCUAUGUAUUUAUCGUUCUUGAUCAUAAGCCGCUUAUUUAUAUCAUGUAUCUCUAAG | 0.373
UCUUAGUGAAGUCCUUUGUUGGGCUAUGGGCUAGCAUGUGGCUCACUGCUGUAAUGCUAGUAUUUCAAAGUCUGAAGCAGGAGGACUCCCAUGAGGUUGAGGUUACCCUG | 0.454
GCAGUUGCCAUGAGCCAAACCCUAAGUUAAAUAUGUAUCCUACAUAAGAGCUAAUCUCACCACUACAUGCCCAUCUAUGGAAGAUCUAACAGAAGCUUAGGGAACUAAGC | 0.322
ACGGACCGCUCCCUCUCUUCUUCAGGAGACUUUAUAAUUUACCUGAAGAGGUUUUCUUGAUAAUUUUCCUUUAAUAUGAAAUUUUCGUGCUUUAUCAGUAGCCCAGGAUA | 1.69
AGAGUUGGAAAUAACCCUUUAACAUCAACAUGCUUCAAAGACUUUUUGCCUUUGGCCUAGUAAGAUGCCUCUCCAGCUACUGAGCCCACAAGUAACAUGAGCGGAUAAAA | 0.236
GAACAUGUUUUCUUCAGGAACAACCAGAGGUAUCACAAACACUGUUACUCAUCUACUGGCUCAGACUGUACUACUUUUUUUUUUUUUUUUCCUGAAAAAGAAACCAGAAA | 0.416
CAAAAAAAAAUUAAUGGUAGUAAUUGAACAGUGUUUUGCAAUUUGUGAAACAGUGUGCUGUGUUUUGUACAAAGAUUUCACGAAAGGGAGAGUCCUUCUAAACCUAUAUU | 0.63
CCAGAAUCACCAGACACCUCCAUGGCUCCAGCUAUGGGAACAGCUGCAUUGGGGCUGCCUUUCUGUUUGGCUUAGGAACUUCUGUGCUUCUUGUGGCUCCACUCGCGAGG | 0.452
AAUGCCUAGGUGAGCCAGUGGUUCUCAAAGUAGGGUUCCCCAGGCACUGUCAGAAAUACAGUCAUACCCCAGGUUAAAUCUCGAAGCAGAGAUUUGGGGGCUUCAUUAAC | 0.32

Set 2
Target: Histone acetyltransferase KAT6A, winged helix 1, GST fusion (KAT6A, Homo sapiens, UniProt Q92794, residues 1-85)
Technique: protein binding microarray
Form: double-stranded DNA, one strand shown
Matrix: in vitro
Tested at: not given
Setting: 8-mer, flanks averaged, mean of 2 arrays, mostly near background
Reference: not given
Reading: higher = stronger binding
Residues (chain): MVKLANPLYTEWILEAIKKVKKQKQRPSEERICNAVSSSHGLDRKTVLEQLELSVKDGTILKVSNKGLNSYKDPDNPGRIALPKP
Oligonucleotide | E-score
CCGGCTAA | 0.265
CCTGCCAC | -0.1
CCACGACA | -0.049
GGTTCAAA | 0.0523
CAAGGCGG | 0.224
ATATCTCG | -0.0795
ATTTAACC | -0.0663
AGTTACCC | -0.179
ACCTACGC | 0.169
AGGTGTTA | -0.206
TAGCCACA | -0.191
CCCAGCGA | -0.0881
GGGAAGGA | -0.0154
AAGCATTA | -0.122
AACATCTC | -0.0136
AAACGCGA | 0.128
CGGGGCTC | 0.223
CCCTTCAA | -0.15
AGGAGTGG | -0.158
ACTAATTC | 0.00475

Set 3
Target: Interferon regulatory factor 7, full length, phosphomimetic (IRF7, Homo sapiens, UniProt Q92985, residues 1-503, S471D/S472D/S475D/S476D/S477D/S483D/S484D/S487D)
Sequence of UniProt Q92985 (whole entry, unmodified, looked up): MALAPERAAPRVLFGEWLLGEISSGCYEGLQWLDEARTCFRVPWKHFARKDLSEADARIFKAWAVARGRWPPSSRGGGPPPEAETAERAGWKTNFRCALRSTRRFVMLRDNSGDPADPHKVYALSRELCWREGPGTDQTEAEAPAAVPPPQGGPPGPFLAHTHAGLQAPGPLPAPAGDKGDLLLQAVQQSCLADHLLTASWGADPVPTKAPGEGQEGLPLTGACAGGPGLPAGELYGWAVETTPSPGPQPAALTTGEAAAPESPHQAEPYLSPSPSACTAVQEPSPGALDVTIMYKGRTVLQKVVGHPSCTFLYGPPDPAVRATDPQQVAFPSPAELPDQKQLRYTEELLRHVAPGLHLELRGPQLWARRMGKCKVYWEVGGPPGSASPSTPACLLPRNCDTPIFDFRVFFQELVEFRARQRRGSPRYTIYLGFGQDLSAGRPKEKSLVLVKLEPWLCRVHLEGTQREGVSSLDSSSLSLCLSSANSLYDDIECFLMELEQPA
Technique: protein-binding microarray
Form: double-stranded DNA, one strand shown
Matrix: in vitro
Tested at: 2200 nM top
Setting: 60-bp whole probe
With: salmon DNA 0.4 mg/ml
Reference: random background probes
Reading: higher = stronger binding
Constant ends, left off below: GCCTAGCAC … GTCTTGATTCGCTTGACGCTGCTG
Oligonucleotide | fitted relative affinity
GATGATTTCAGTTCCGAGACGTGCTAG | 1.9 z-score
TTAGGTTTGCTACTGCTTTAGTGCTAG | 0.426 z-score
GACGGTTTCGACCTTCGGGACGTGCTA | 4.28 z-score
GACGGTTTCGACTAGCGGGACGTGCTA | 3.8 z-score
GACTGTATCGGGTATCGGGACGTGCTA | 0.0409 z-score
ATTGAGAATTCCACTCCGCTGTGCTAG | 0.827 z-score
GACGGTATCCTTCCCCTGACGTGCTAG | 0.95 z-score
TAAGGTTTCGGTATCGGTTAGTGCTAG | 7 z-score
GACGATATCGGGTATGGAGACGTGCTA | 0.089 z-score
GACGAACTGGGGACGGGAGACGTGCTA | -0.326 z-score
GACGATATCAGTACCGAGACGTGCTAG | 0.188 z-score
GCCCCTCTCCTCTCAGGAGCTGTGCTA | 0.00704 z-score
GTGTGTTTGTGTGTGTATGTGTGCTAG | 1.58 z-score
GACGGTTTCGGCCTCGGGACGTGCTAG | 3.2 z-score
GACGGTTTCATACTGCTGACGTGCTAG | 2.43 z-score
TTAGGTATCCACACTGGGTTAGTGCTA | -0.0506 z-score
GACGGTTCCGGATTCGGGACGTGCTAG | 2.01 z-score
TTAAATATCGGGTTTCGATTAGTGCTA | 2.58 z-score
GACGATTTCAGTTCCGGGACGTGCTAG | 2.09 z-score

Set 4
Target: Ras GTPase-activating protein-binding protein 1, full length (G3BP1, Homo sapiens, UniProt Q13283)
Sequence of UniProt Q13283 (whole entry, looked up): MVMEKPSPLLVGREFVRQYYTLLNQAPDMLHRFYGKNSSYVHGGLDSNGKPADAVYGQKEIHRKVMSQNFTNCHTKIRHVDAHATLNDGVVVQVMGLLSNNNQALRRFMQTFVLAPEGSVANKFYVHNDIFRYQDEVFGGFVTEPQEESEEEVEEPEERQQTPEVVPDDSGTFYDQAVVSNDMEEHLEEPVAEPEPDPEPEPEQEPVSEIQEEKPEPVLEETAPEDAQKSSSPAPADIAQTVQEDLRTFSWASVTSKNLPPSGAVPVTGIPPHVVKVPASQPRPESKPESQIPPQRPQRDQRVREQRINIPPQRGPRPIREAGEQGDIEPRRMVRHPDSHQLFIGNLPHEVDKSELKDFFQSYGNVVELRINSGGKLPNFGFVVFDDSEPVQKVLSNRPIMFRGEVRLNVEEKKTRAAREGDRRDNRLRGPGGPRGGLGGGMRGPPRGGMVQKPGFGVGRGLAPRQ
Technique: RNA Bind-n-Seq
Form: RNA
Matrix: in vitro
Tested at: 200 nM
Setting: whole 134-nt RNA, ends assumed
With: 150 mM KCl
Reference: input library
Reading: higher = stronger binding
Constant ends, left off below: GGGAGUUCUACAGUCCGACGAUC … UGGAAUUCUCGGGUGUCAAGG
Oligonucleotide | log2 enrichment
GCAGGAAGUAAAAACAAAUGGAAAUGCUUCGGAUAGUGGCUGGGGUGGGGGUUGCUAAGGAAAGGGUGGGAUGGGAGUGGGUAAAGAGUU | 0.947
UCCUGUGCUACACAUCGUAUGUACCGAAUCGGGAAAAAAAGGGAAAAAGGGUUUUUGGGAAAGUAUUAUGUUACGCCGUUCGGAUCUGCA | -0.47
CUGUGCUACACAUCGUAUGUACCGAAUCGGGAAAAAAAGGGGAAAAAAAGGGAAAAAAAGGGAAAGUAUUAUGUUACGCCGUUCGGAUCU | -0.797
AAGUCCUGUGCUACACAUCGUAUGUACCGAAUCGGGCCCCGGGGCCCCGGCCCCGGAAAGUAUUAUGUUACGCCGUUCGGAUCUGCACUU | -1.83
UCCUGUGCUACACAUCGUAUGUACCGAAUCGGGAAAAAAGGGAAAAAAGGGAAAAAAGGGAAAGUAUUAUGUUACGCCGUUCGGAUCUGC | -0.362
CUGUGCUACACAUCGUAUGUACCGAAUCGGGGCCCCCCCGGGCCCCCCCGGGCCCCCCCGGAAAGUAUUAUGUUACGCCGUUCGGAUCUG | -0.751
GCAGGAAGUAAAAACAAAUGGAAAUGCUUCGGAUAGUGGCAGGGGUGGGGGUUGCUAAGGAAAGGGUGUGAUGGGAGUGGGUAAAGAGUU | 0.886
UGAACAGCUCUGCGCUUUUUGUUACUGUGGGGAAAAAAGUUCCUUAGGACAAGGAGACUUAAAACAAUUCAGAAUAACGCCUGGAUUUAU | -0.918
CUGUGCUACACAUCGUAUGUACCGAAUCAAAUUUUUUUAAAUUUUUUUAAAUUUUUUUAAAAAAGUAUUAUGUUACGCCGUUCGGAUCUG | -1.44

Some of these lines once more (set 3):
Oligonucleotide | fitted relative affinity
GTGTGTTTGTGTGTGTATGTGTGCTAG | 1.58 z-score
GACGGTTTCGGCCTCGGGACGTGCTAG | 3.2 z-score
GACGGTTTCATACTGCTGACGTGCTAG | 2.43 z-score
TTAGGTATCCACACTGGGTTAGTGCTA | -0.0506 z-score
GACGGTTCCGGATTCGGGACGTGCTAG | 2.01 z-score
TTAAATATCGGGTTTCGATTAGTGCTA | 2.58 z-score
